# Results of several laboratories.
# Protocols differ between the studies behind these lines.
# Target: Serine/threonine-protein kinase pim-2 (PIM2, Homo sapiens, UniProt Q9P1W9)
Compound,test,conditions,scale,endpoint,value
COc1ccc(NC(=O)Nc2ccc3c(c2)C(=O)N(C(C)CO)CC(C)C(CN(C)Cc2ccc4c(c2)OCO4)O3)cc1 (centres unmarked),"binding, competition with immobilised ligand",10 µM,,remaining binding,85%
Cc1cccc(-c2ccc3nc(NC(=O)C4CCCCC4)nn3c2)c1,"enzyme activity, Dundee kinase panel",10 µM,,remaining activity,100%
CC(C)=CC1OC(C)(C)C2C=C3C(=O)C(Cl)=CC(O)C3C3C(O)C4OC4C(=O)C132 (centres unmarked),"cell-free assay, competition with immobilised ligand",10 µM,,remaining binding,95%
CNC1C[S+]2CC[S+]3CC[S+](C1)[Ru-4]321([N]=C=S)[n]2c3ccc(OC)cc3c3c4c(c5cc(F)c[n+]1c5c32)C(=O)NC4=O (centres unmarked),KinomeScan,0.1 µM,relative to: untreated,remaining binding,19%
Cc1cccc(O[C@H]2CCC[C@@H](C(C)CNCc3ccncc3)C2)c1 (relative stereo),"enzyme activity, inhibitor",10 µM,,inhibition,1%
Nc1nc(Nc2ccccc2)sc1C(=O)c1ccccc1,"enzyme activity, inhibitor",10 µM,,remaining activity,80%
C=CC(=O)N1Cc2nc(-c3cc(-c4cc(Cl)cnc4Cl)c(F)cc3F)n(-c3ccncn3)c2C1,"cell-free assay, inhibitor",1 µM,,inhibition,-1%
NC(=O)C[C@H]1CCc2sc3ncnc(O[C@H]4CC[C@H](N5CCOCC5)CC4)c3c21,"enzyme activity, inhibitor",10 µM,,inhibition,-4%
Nc1ncc2c(n1)-c1c([nH]c3ccc(C4=CCOCC4)cc13)CCC2,"binding, competition with immobilised ligand",1 µM,,remaining binding,100%
C=CC(=O)Nc1cccc(-c2cnc3[nH]cc(C(=O)NC(C)(C)C)c3n2)c1,"enzyme activity, inhibitor",0.1 µM,,inhibition,1%
Cc1ccc(-c2c(/C=C(\C#N)C(=O)NC(C)C)n(CCCO)c3ncnc(N)c23)cc1,"cell-free assay, competition with immobilised ligand",1 µM,,remaining binding,95%
COc1c(OCCCN2CCOCC2)ccc2c1N=C(NC(=O)c1cnc(N)nc1)N1CCN=C21,"kinase activity, inhibitor",1 µM,relative to: untreated control,remaining activity,100%
COc1cc(Nc2nc(C)cc(-c3cnn4nc(OC)ccc34)n2)cc(C(F)(F)F)c1,inhibitor,1 µM,relative to: control,remaining activity,95%
CN1CCN(Cc2ccc(NC(=O)c3cccc(C#Cc4cnc(N)c5ncccc45)c3)cc2C(F)(F)F)CC1,"cell-free assay, competition with immobilised ligand",50 nM,,remaining binding,100%
Cc1cccc(-c2ccc3nc(NC(=O)C4CCOCC4)nn3c2)c1,"enzyme activity, Dundee kinase panel",10 µM,,remaining activity,100%
C=CC(=O)N1CCCC(n2c(=O)c3ncccc3n(Cc3ccc(Oc4ccccc4)cc3)c2=O)C1 (centres unmarked),"cell-free assay, competition with immobilised ligand",1 µM,,remaining binding,100%
CNC(=O)C[C@H](Cc1ccc(C#N)cc1)NC(=O)c1cc(-c2ccc(CN[C@H](C)c3ccc(C)cc3)o2)ccc1Cl,"enzyme activity, inhibitor",1 µM,,activity vs control,83%
CN1CCN(Cc2ccc(-c3ccc(CO[C@H]4CCC[C@@H]4NC(=O)c4cc(-c5cnn(C)c5)cnc4N)cc3)cc2)CC1,"enzyme activity, inhibitor",0.1 µM,,inhibition,-19%
CCN1CCN(Cc2ccc(C(=O)Nc3ccc(C)c(NCc4cnc5[nH]ccc5c4OC)c3)cc2C(F)(F)F)CC1,"binding, competition with immobilised ligand",1 µM,,remaining binding,90%
CNS(=O)(=O)Nc1nccc(Cc2c(C)c3ccc(Oc4ncccc4F)cc3oc2=O)c1F,"binding, competition with immobilised ligand",10 µM,,remaining binding,84%

# Some of these lines once more:
Compound,test,conditions,scale,endpoint,value
C=CC(=O)N1Cc2nc(-c3cc(-c4cc(Cl)cnc4Cl)c(F)cc3F)n(-c3ccncn3)c2C1,"cell-free assay, inhibitor",1 µM,,inhibition,-1%
C=CC(=O)N1CCCC(n2c(=O)c3ncccc3n(Cc3ccc(Oc4ccccc4)cc3)c2=O)C1 (centres unmarked),"cell-free assay, competition with immobilised ligand",1 µM,,remaining binding,100%
CNC(=O)C[C@H](Cc1ccc(C#N)cc1)NC(=O)c1cc(-c2ccc(CN[C@H](C)c3ccc(C)cc3)o2)ccc1Cl,"enzyme activity, inhibitor",1 µM,,activity vs control,83%
